Literature values as cited in several papers.
Lines come from different studies, so protocols differ. ± marks the error that the study gave.
ACE: Angiotensin-converting enzyme (ACE, Homo sapiens, UniProt P12821)
Sequence of UniProt P12821 (whole entry, looked up): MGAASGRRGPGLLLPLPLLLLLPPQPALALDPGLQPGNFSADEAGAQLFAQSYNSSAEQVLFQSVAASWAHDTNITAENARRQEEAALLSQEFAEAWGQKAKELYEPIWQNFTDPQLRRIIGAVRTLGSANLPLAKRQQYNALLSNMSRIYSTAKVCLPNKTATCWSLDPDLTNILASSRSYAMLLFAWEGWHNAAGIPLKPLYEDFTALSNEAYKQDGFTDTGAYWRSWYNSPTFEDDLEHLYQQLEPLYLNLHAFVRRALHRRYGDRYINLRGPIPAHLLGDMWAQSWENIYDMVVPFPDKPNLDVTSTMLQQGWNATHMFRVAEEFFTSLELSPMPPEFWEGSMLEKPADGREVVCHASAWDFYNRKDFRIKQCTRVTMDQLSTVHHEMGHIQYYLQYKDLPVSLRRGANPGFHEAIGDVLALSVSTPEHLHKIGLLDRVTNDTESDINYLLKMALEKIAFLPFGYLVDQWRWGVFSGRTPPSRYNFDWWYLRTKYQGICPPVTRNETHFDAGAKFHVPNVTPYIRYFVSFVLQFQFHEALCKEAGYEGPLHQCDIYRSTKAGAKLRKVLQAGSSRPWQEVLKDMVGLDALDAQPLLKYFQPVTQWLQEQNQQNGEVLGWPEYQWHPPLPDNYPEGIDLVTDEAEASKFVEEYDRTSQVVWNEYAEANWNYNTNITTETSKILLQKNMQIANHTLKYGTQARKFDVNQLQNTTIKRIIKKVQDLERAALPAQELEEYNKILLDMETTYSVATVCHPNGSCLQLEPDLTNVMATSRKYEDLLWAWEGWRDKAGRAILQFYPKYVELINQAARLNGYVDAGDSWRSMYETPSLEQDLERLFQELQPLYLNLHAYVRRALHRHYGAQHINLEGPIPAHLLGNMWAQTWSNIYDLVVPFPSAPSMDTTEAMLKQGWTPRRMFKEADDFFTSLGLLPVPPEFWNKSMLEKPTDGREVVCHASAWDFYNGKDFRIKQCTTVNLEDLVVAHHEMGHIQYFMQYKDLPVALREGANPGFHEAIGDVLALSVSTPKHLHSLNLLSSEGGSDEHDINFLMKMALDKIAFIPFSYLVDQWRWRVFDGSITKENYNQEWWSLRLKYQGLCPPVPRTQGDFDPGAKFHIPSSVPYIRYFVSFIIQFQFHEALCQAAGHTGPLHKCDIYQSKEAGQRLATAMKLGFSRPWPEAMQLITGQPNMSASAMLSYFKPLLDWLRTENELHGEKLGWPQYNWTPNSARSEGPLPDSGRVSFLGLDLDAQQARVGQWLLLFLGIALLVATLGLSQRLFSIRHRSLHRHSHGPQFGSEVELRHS
PTGS2: Prostaglandin G/H synthase 2 (PTGS2, Homo sapiens, UniProt P35354)
Sequence of UniProt P35354 (whole entry, looked up): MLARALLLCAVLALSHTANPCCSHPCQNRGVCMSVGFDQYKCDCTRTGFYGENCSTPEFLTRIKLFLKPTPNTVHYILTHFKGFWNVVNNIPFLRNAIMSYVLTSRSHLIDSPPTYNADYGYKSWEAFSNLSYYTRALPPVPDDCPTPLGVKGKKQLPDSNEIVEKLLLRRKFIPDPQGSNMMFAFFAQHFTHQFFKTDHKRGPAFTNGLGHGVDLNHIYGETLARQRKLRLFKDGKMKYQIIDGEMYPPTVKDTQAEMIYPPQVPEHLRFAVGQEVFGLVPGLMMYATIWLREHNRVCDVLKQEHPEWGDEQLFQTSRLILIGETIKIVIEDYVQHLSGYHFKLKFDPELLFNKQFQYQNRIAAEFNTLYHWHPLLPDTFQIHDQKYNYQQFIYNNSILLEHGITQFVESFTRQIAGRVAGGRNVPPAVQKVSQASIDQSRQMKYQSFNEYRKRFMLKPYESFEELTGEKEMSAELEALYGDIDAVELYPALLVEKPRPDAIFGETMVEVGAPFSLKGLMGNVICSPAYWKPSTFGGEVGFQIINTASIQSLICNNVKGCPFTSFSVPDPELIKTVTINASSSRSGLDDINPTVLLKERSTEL
B1: CCL1; sequence looked up; chain KSMQVPFSRCCFSFAEQEIPLRAILCYRNTSSICSNEGLIFKLKRGKEACALDTVGWVQRHRKMLRHCPSKRK
Sequence of UniProt Q9ZMY2 (whole entry, looked up): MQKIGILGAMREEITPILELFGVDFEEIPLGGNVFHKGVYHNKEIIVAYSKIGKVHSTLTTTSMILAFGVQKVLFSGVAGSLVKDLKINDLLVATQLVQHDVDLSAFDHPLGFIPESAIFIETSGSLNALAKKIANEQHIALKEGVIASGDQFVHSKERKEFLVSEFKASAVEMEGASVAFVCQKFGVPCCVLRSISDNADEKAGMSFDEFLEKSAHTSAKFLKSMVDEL

With `KKRKGHKMATHKRKKRLRKNRHKKK` the MIC was 6 µM (Pseudomonas aeruginosa; peptide, ATCC 15692).
With `DIGGL` the IC50 was 10.3 µM (ACE; enzyme activity, inhibitor; peptide).
Under “cardiovascular, respiratory, body temperature effects”, `pegcetacoplan` is recorded as “no effect” (cynomolgus monkey; 28 or 140 mg/kg).
`Et-DADMe-ImmA` gave a Ki of 0.053 ± 0.007 nM (Aminodeoxyfutalosine nucleosidase (Helicobacter pylori, UniProt Q9ZMY2); enzyme activity, inhibitor; tighter complex after isomerization).
The EC50 of `B1 (CCL1)` is reported as 0.0082 µM (CCR8 V109A mutant; IP accumulation, agonist).
With `FVHPILQSAV` the Kd was 12.2 µM (CHAPSYN-110 PDZ domain 3; binding, fluorescence polarization; peptide).
`SPGPW` gave an IC50 of 1310 µM (ACE; inhibitor; peptide).
The IC50 of `lithium acetylsalicylate` is reported as 1130 µM (PTGS2; inhibitor).
For `PQVSTPTL`, the IC50 was 86 ± 8 µM (ACE; peptide).
`DTKNYKQTSV` gave a Kd of 17.4 µM (CHAPSYN-110 PDZ domains 2/3; binding, fluorescence polarization; peptide).
For `DRDRPECSTMVKYEQKLPSLGKYALKRAIKIKFGRK`, the MIC was 5 µM (Pseudomonas aeruginosa; peptide, ATCC 15692).
For `bromfenac`, the IC50 was 0.00745 µM (PTGS2; inhibitor).
`CHRSYYCWNLNT` has an IC50 of 0.44 µM (Programmed cell death 1 ligand 1 (CD274, Homo sapiens, UniProt Q9NZQ7); binding; peptide).
For `QYLPR`, the IC50 was 655 µM (ACE; peptide).
For `AHFSSLESEV`, the Kd was 3.91 µM (CHAPSYN-110 PDZ domains 2/3; binding, fluorescence polarization; peptide).
With `tolmetin sodium dihydrate` the IC50 was 0.82 µM (PTGS2; inhibitor).
For `GVLY`, the IC50 was 16 µM (ACE; enzyme activity, inhibitor; peptide).
For `tolmetin sodium`, the IC50 was 0.82 µM (PTGS2; inhibitor).
For `HTHSYIETHV`, the Kd was 5.27 µM (CHAPSYN-110 PDZ domain 3; binding, fluorescence polarization; peptide).

Some of these lines once more:
Under “cardiovascular, respiratory, body temperature effects”, `pegcetacoplan` is recorded as “no effect” (cynomolgus monkey; 28 or 140 mg/kg).
`Et-DADMe-ImmA` gave a Ki of 0.053 ± 0.007 nM (Aminodeoxyfutalosine nucleosidase (Helicobacter pylori, UniProt Q9ZMY2); enzyme activity, inhibitor; tighter complex after isomerization).
The EC50 of `B1 (CCL1)` is reported as 0.0082 µM (CCR8 V109A mutant; IP accumulation, agonist).
